Measurements gathered from unrelated publications.
Lines come from different studies, so protocols differ. ± gives the spread as reported.
AR: Androgen receptor (AR, Homo sapiens, UniProt P10275)
Sequence of UniProt P10275 (whole entry, looked up): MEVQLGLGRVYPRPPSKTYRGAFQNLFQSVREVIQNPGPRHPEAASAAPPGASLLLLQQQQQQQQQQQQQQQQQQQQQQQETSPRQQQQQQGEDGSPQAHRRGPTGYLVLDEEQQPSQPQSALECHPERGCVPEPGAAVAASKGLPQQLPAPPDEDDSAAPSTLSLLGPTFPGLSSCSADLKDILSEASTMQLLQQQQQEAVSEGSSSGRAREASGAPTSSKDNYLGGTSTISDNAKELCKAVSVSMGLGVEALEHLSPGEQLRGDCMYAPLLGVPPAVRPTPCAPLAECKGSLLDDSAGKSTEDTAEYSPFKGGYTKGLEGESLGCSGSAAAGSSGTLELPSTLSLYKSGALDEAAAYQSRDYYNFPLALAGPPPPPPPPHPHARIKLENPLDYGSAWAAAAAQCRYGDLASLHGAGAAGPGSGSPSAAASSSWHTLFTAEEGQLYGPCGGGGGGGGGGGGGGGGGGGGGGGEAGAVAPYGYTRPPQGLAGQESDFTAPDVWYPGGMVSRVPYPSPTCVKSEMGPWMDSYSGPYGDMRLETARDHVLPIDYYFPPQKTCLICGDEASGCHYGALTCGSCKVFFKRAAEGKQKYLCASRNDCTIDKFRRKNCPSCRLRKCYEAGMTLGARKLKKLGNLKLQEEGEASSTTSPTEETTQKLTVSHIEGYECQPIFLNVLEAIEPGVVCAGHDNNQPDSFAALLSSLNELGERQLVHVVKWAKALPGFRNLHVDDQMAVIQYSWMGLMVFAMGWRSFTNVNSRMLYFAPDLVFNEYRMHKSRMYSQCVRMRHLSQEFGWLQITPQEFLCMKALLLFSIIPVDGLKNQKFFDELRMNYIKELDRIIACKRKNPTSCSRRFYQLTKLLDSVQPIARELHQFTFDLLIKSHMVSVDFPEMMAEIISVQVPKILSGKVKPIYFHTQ
PTGS1: Prostaglandin G/H synthase 1 (PTGS1, Ovis aries, UniProt P05979)
Sequence of UniProt P05979 (whole entry, looked up): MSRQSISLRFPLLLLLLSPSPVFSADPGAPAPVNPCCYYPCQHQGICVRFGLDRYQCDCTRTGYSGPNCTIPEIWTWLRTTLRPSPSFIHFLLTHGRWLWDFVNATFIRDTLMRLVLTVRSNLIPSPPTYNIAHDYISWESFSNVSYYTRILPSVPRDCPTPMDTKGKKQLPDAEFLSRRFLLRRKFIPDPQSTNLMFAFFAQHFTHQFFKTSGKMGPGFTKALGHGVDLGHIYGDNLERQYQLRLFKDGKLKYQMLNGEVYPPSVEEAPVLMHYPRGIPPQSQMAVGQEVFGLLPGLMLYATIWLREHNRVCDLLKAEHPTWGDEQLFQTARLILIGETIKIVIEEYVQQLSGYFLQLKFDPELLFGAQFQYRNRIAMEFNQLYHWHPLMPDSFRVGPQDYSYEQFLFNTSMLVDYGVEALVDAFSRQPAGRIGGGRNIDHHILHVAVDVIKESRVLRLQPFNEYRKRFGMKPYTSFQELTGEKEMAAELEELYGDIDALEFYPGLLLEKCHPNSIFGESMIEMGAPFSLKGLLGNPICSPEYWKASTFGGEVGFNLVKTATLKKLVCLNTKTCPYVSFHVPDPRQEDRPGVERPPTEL
Sequence of UniProt O75475 (whole entry, looked up): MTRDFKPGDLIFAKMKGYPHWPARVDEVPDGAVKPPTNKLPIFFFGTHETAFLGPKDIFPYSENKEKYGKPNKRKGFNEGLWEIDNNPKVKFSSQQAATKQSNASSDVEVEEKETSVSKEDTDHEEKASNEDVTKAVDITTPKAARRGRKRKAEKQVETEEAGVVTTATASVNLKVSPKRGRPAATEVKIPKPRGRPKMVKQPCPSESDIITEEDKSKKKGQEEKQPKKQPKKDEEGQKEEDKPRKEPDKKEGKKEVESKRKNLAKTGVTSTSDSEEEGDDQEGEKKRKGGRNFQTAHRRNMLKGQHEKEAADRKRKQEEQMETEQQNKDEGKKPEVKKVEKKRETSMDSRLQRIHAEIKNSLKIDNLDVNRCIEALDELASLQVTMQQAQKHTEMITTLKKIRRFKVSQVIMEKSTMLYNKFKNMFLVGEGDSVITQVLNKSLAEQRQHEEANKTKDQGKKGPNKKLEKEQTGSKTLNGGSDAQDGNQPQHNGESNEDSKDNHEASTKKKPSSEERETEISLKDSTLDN
Sequence of UniProt P05106 (whole entry, looked up): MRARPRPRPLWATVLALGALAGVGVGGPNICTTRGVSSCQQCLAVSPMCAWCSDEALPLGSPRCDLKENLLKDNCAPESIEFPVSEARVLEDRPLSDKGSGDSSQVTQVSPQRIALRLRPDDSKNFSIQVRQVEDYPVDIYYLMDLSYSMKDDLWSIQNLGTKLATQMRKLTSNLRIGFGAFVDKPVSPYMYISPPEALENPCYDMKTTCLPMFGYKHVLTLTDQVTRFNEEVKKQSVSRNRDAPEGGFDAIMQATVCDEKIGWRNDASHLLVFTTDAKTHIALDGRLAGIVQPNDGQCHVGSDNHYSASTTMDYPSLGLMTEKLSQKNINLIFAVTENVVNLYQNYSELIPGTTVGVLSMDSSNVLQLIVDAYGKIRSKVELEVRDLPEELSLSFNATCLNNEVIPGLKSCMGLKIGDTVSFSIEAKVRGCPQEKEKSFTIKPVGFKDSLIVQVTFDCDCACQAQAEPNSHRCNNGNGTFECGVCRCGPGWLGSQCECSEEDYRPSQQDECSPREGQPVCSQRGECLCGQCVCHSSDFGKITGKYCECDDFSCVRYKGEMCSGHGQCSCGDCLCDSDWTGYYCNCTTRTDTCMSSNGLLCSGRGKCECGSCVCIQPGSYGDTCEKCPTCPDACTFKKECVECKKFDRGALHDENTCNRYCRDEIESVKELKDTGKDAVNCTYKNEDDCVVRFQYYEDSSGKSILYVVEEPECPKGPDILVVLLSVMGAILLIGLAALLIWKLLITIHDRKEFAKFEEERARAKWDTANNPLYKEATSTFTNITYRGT
Sequence of UniProt O15379 (whole entry, looked up): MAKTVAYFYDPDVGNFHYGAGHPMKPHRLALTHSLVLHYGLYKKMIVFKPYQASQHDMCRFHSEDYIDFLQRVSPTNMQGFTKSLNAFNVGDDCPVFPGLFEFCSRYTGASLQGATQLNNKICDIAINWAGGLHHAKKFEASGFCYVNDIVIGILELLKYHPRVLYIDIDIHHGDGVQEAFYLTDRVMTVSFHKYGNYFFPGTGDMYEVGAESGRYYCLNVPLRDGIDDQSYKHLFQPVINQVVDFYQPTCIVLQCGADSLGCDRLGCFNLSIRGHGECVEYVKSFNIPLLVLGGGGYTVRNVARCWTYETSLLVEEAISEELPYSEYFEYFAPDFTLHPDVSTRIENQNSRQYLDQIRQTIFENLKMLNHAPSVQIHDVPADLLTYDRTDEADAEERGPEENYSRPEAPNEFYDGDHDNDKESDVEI
Sequence of UniProt Q05941 (whole entry, looked up): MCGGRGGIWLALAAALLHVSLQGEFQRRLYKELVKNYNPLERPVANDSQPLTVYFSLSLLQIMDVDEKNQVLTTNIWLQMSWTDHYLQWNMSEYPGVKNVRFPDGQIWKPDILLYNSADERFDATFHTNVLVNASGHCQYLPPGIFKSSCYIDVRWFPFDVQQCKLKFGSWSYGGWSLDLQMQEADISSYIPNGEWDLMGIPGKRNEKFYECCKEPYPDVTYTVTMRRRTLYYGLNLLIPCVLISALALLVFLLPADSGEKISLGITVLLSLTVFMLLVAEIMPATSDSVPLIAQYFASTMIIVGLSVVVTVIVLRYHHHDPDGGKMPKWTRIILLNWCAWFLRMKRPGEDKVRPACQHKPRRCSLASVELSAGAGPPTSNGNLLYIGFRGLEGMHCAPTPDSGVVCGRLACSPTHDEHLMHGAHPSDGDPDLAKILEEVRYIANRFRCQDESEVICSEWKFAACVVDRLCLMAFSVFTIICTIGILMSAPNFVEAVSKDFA

SMILES = C[C@@H]1CCN(c2nc3ccc(Cl)cc3o2)CCN1S(=O)(=O)c1ccc2c(c1)OCCO2; target = HCRTR1 (Homo sapiens, UniProt O43613); test = calcium signal, antagonist, fluorescence; IC50 = 0.2 µM
SMILES = CC[C@H](C)[C@@H]1NC(=O)[C@H](C(C)C)NC(=O)[C@H](C(C)C)NC(=O)[C@H](CC(C)C)NC(=O)C[C@@H](C(=O)N[C@@H](Cc2c[nH]c3ccccc23)C(=O)N[C@@H](CC(N)=O)C(=O)N[C@@H](C)C(=O)N2CCC[C@H]2C(=O)NCC(=O)N[C@@H](Cc2c[nH]c3ccccc23)C(=O)N[C@@H](Cc2ccc(O)cc2)C(=O)O)NC(=O)[C@H](C)NC(=O)[C@H](CCC(N)=O)NC(=O)[C@H](C(C)C)NC1=O; target = TLR4 (Homo sapiens, UniProt O00206); test = LPS binding, antagonist, ELISA; IC50 = 0.273 ± 0.022 µM
SMILES = CCCCCCOc1ccc(Nc2ccccc2C(=O)O)cc1; target = AR; test = reporter gene, antagonist, MMTV-Luc reporter; test system = MDA-kb2; conditions = 20 h, with: 0.2 nM DHT (EC50); IC50 = 20.5 ± 18.7 µM
SMILES = COc1cc(OC)cc(C(=O)/C=C/c2ccc(N(C)CCO)cc2)c1; target = PTGS1; test = enzyme activity, inhibitor, ELISA; IC50 = 41.3 µM
SMILES = N#Cc1cn([C@@H]2O[C@H](CSCC[C@H](N)C(=O)O)[C@@H](O)[C@H]2O)c2ncnc(N)c12; target = PRMT3 (Homo sapiens, UniProt O60678); test = enzyme activity, inhibitor, radiometric; IC50 = 2 µM
SMILES = CC(NC(=O)C=Cc1ccco1)C(=O)NC(Cc1ccccc1)C(N)=O (stereo not shown); target = Mycosin-1 (Mycolicibacterium thermoresistibile, UniProt G7CDQ2); test = enzyme activity, inhibitor; IC50 = 135 µM
SMILES = O=C1c2c(O)cc(O)cc2OC2(c3ccc(O)cc3)Oc3cc4oc(-c5ccc(O)c(O)c5)c(O)c(=O)c4c(O)c3C12O (racemic); target = ACHE (Homo sapiens, UniProt P22303); IC50 = 4.55 ± 0.36 µM
SMILES = CC(C)CN(Cc1ccc(F)cc1)c1nc(C#N)nc(N2CCOCC2)n1; target = CPL (Toxoplasma gondii, UniProt Q6DMN0); test = enzyme activity, inhibitor, Z-L-R-AMC hydrolysis fluorescence; IC50 = 0.067 µM
SMILES = NC(=O)CC[C@H](N)C(=O)NCC(=O)N[C@@H](CC(=O)O)C(=O)N[C@@H](Cc1ccccc1)C(=O)O; target = Integrin alpha-IIb/beta-3, ADP-activated (Homo sapiens, UniProt P05106+P08514); test = fibrinogen binding, inhibitor; test system = human platelets; IC50 = > 1000 µM
SMILES = CC[C@H](C)[C@H](NC(=O)[C@H](CCCNC(=N)N)NC(=O)[C@H](CCCNC(=N)N)NC(=O)[C@@H]1CCCN1C(=O)[C@@H]1CCCN1C(=O)[C@H](CCCNC(=N)N)NC(=O)[C@@H]1CCCN1C(=O)[C@H](CCCNC(=N)N)NC(=O)[C@@H]1CCCN1C(=O)[C@H](CC(C)C)NC(=O)[C@H](Cc1ccc(O)cc1)NC(=O)[C@@H]1CCCN1C(=O)[C@@H]1CCCN1C(=O)[C@H](CCCCN)NC(=O)[C@H](CC(=O)O)NC(=O)[C@@H](NC(=O)c1cn(C2CC2)c2cc(N3CCNCC3)c(F)cc2c1=O)C(C)C)C(=O)N[C@@H](Cc1ccc(O)cc1)C(=O)N[C@@H](CC(N)=O)C(=O)N[C@@H](CCCNC(=N)N)C(N)=O; target = dnaK (Escherichia coli, UniProt P0A6Y8); test = ligand displacement, FP; conditions = pH 7.5; IC50 = 1.01 µM
SMILES = CC(=O)NC1C(OC2OC(CC(O)C3OC(n4ccc(=O)[nH]c4=O)C(O)C3O)C(O)C(O)C2NC(=O)C=CCCCCCCCCCC(C)C)OC(CO)C(O)C1O (stereo not shown); target = UDP-N-acetylglucosamine--dolichyl-phosphate N-acetylglucosaminephosphotransferase (Homo sapiens, UniProt Q9H3H5); test = enzyme activity, inhibitor; IC50 = > 50 µM
SMILES = COc1cc(OC)c(C(=O)/C=C/c2cccc(OC)c2OC)c(OC)c1; target = PTGS2 (Homo sapiens, UniProt P35354); test = enzyme activity, inhibitor, ELISA; IC50 = 35.7 µM
SMILES = O=C(O)c1ccccc1Nc1ccc(Oc2ccccc2)cc1; target = AR; test = reporter gene, antagonist, MMTV-Luc reporter; test system = MDA-kb2; conditions = 20 h, with: 8 nM DHT (EC90); IC50 = > 100 µM
SMILES = COc1cccc(/C=C/C(=O)c2ccc(O)cc2C)c1OC; target = PTGS1; test = enzyme activity, inhibitor, ELISA; IC50 = 82 µM
SMILES = CCCC[C@H](NC(=O)[C@H](CC(C)C)NC(=O)[C@H](Cc1c[nH]cn1)NC(=O)CNC(=O)[C@@H](NC(=O)[C@H](C)NC(=O)[C@H](Cc1c[nH]c2ccccc12)NC(=O)[C@H](CCC(N)=O)NC(=O)[C@H](CC(N)=O)NC(=O)CNC(=O)[C@H](Cc1ccc(O)cc1)NC(=O)[C@H](CCCNC(=N)N)NC(=O)[C@H](CCC(N)=O)NC(=O)[C@@H]1CCC(=O)N1)C(C)C)C(N)=O; target = BRS3 (Homo sapiens, UniProt P32247); test = human GRPR activity, cell-based; IC50 = > 3 µM
SMILES = Cc1ccccc1C(c1c[nH]c2ccccc12)C(C#N)C#N (stereo not shown); target = Cocaine esterase (CES2, Homo sapiens, UniProt O00748); test = enzyme activity, inhibitor; test system = human liver microsomes; conditions = pH 7.4, 37 °C, with: fluorescein diacetate; IC50 = 4.37 ± 0.66 µM
SMILES = O=C(CCCCCCC(=O)Nc1ccccc1N=Nc1ccccc1)NO; target = HDAC3 (Homo sapiens, UniProt O15379); test = enzyme activity, inhibitor, fluorescence; IC50 = 0.0077 µM
SMILES = C=CCCC[C@](C)(N)C(=O)N[C@@H](C)C(=O)N[C@@H](Cc1ccc(O)cc1)C(=O)N[C@@H](Cc1ccccc1)C(=O)N[C@@](C)(CCCC=C)C(=O)N[C@@H](CC(C)C)C(=O)N[C@@H](CCCCN)C(=O)N[C@@H](CC(C)C)C(=O)N[C@@H](C)C(=O)NCC(=O)N[C@@H](CCCNC(=N)N)C(=O)N[C@@H](Cc1c[nH]c2ccccc12)C(N)=O; target = PC4 and SFRS1-interacting protein, with HIV integrase (Homo sapiens, UniProt O75475); test = LEDGF/p75-integrase interaction, inhibitor; IC50 = 26 µM
SMILES = COC(=O)C1CN1S(=O)(=O)c1ccc(C(C)(C)C)cc1 (stereo not shown); target = Protein disulfide-isomerase, a domain (P4HB, Homo sapiens, UniProt P07237); test = insulin reduction, inhibitor, insulin turbidity; IC50 = 1.1 ± 0.05 µM
SMILES = C/C=C(\NC(=O)[C@@H]1CSC[C@H]2NC(=O)[C@H]([C@@H](C)CC)NC(=O)[C@H](CC(N)=O)NC(=O)[C@H](Cc3ccc(O)cc3)NC(=O)[C@H](Cc3c[nH]c4ccccc34)NC(=O)[C@H](C)NC(=O)[C@@H](N)CSSC[C@H](NC2=O)C(=O)N[C@@H](CCCNC(=N)N)C(=O)N[C@@H](CC(C)C)C(=O)NCC(=O)N[C@@H](CC(N)=O)C(=O)N[C@@H](CCCCN)C(=O)NCC(=O)N[C@@H](C)C(=O)N[C@@H](Cc2ccc(O)cc2)C(=O)N1)C(=O)N[C@@H](CC(C)C)C(=O)N[C@H]1C(=O)N[C@@H](C(C)C)C(=O)N[C@@H](CCC(=O)O)C(=O)N[C@@H](C)C(=O)N[C@@H](CCSC)C(=O)N2CCC[C@H]2C(=O)N[C@@H](CO)C(=O)N[C@H](C(=O)N[C@@H](CC(N)=O)C(=O)O)CS[C@H]1C; target = PBP1b (Escherichia coli); test = transglycosylase activity, inhibitor; conditions = with: lipid II 4 µM; IC50 = 50.7 ± 1.7 µM
SMILES = Clc1ccc(C(c2ccc(Cl)cc2)C(Cl)Cl)cc1; target = Abcb1a (Mus musculus, UniProt P21447, N83Q/N87Q/N90Q); test = ATPase activity, inhibitor; test system = purified recombinant protein; conditions = 5 min, pH 7.5, with: verapamil 100 µM; IC50 = 72.5 µM
SMILES = Cc1ccc(C(=O)Nc2cccc3cnccc23)cc1S(=O)(=O)N1CCCCC1; target = Trpv1 (Rattus norvegicus, UniProt O35433); test = ion current, antagonist, two-electrode voltage clamp; conditions = oocytes; IC50 = 36.1 µM
SMILES = O=[N+]([O-])c1cccc(-c2cc(C3CC4CCC3N4)cnc2F)c1 (racemic); target = Chrna7 (Rattus norvegicus, UniProt Q05941); test = ion current, two-electrode voltage clamp; conditions = oocytes; IC50 = 23 µM
SMILES = CC(C)[C@H](NC(=O)[C@H](CC(N)=O)NC(=O)[C@H](Cc1ccc(O)cc1)NC(=O)[C@@H](N)CCCCN)C(=O)N[C@H]1CSC(=O)[C@H](Cc2ccccc2)NC(=O)[C@H](Cc2ccc(O)cc2)NC(=O)[C@H](CC(N)=O)NC(=O)[C@H](CO)NC1=O; target = Accessory gene regulator protein C (Staphylococcus epidermidis, UniProt O86861); IC50 = 0.00215 µM
SMILES = C=CCOCC=C; target = Cytochrome P450 2E1 (CYP2E1, Homo sapiens, UniProt P05181); test = enzyme activity, inhibitor; conditions = 1 h, pH 7.4; IC50 = 6.3 µM
